Published values of several laboratories.
Numbered parts are unrelated; each lists some results of a single study. Positions count from the first letter of the parent shown.

Block 1 — method: RNA Bind-n-Seq; molecule type: RNA; sample: in vitro; concentration: 365 nM; baseline: no-protein control; direction: higher = stronger binding
Target: RNA binding protein fox-1 homolog 2, RRM domain, GST-SBP tag (RBFOX2, Homo sapiens, UniProt O43251-10, residues 100-194)
Notes: natural RNA segment, single round, ends assumed
Residues (chain): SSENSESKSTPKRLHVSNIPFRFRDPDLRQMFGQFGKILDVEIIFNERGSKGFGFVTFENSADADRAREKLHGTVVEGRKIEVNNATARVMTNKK
For `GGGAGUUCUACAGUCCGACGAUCUGCUAUACCCCUCUCCAUUACAGAAACUGGUCCUGUGAGCUAAAAAGUGGGUGUGACUCGUGACUGGGGAGCACUAGGACUGAACACGAAGUGAGGGGUACAGUGUGGGUUGGAAUUCUCGGGUGCCAA`, “RBNS enrichment (R)” read 0.33.
`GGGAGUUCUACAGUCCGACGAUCAGUCACUUCUGGCGCAUUUUAAUAAUUUAAAGAUUUUUAGUGCAAUGGCACGGUAACCUCCAAACCUGAAUUAGACAGAGACUCACUCAGGAAGUGACAGGCCCAUCAUAUGGAAUUCUCGGGUGCCAA`: “RBNS enrichment (R)” 0.409.
`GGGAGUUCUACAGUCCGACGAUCAGUUAACCCUUUACUUUUCCUUCCAUGUGUAUUUUCUUAUAUACUGUGAAUGUGAAAACCUAACUGGUACACUUGAUCUUGUGUUCAUAUGAAAGUGCAAGUCUUUAUUAUGGAAUUCUCGGGUGCCAA` — result for “RBNS enrichment (R)”: 0.356.
`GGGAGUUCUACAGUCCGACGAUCACCGAGCAGCCACAAGCUGGAAACCACCGGCCAUGAACUUGUCCCAGGAACCAAACACCUCCCCUGCACCUGUUCAUUCCUCCCAGUGGAGACUUCAGAUUGGAAUACCUUGGAAUUCUCGGGUGCCAA` — result for “RBNS enrichment (R)”: 0.374.
`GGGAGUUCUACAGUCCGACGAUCGAAAGGCAUAUGUAUAACCAAACUCCAAGUGAUAACCAGACCCAUCUCUCCUCCACCUUGACAAAAGCAGAUUAUAGUAUACAAGGUAGGAAUUCCUGUCCUAUUUGAGAUGGAAUUCUCGGGUGCCAA`: “RBNS enrichment (R)” 0.857.
Under “RBNS enrichment (R)”, `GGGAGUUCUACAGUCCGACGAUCUCCACAGCCUUUUUAUAAACUGAGCCUCUUCUUAAUGAUUGUUCUGGGCUUGGCAGUAGGAUAGACUUGAUGCCUGCGUUUUGGACCUUAGACCUGCCCGCCUUCGUUCCUGGAAUUCUCGGGUGCCAA` is recorded as 1.88.
`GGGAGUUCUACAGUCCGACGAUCUAGAGGCUCUUAAAAGUAUUGAAAGACAAUACUGCUGUUAUAUAGCAAGACAUAAACAGAUUAUAAACAUCAGAGCCAUUUGCUUCUCAGUUUACAUUUCUGAUACAUGCUGGAAUUCUCGGGUGCCAA` — result for “RBNS enrichment (R)”: 0.375.
`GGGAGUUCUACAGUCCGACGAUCUCUUUUAACCUGCGCAUGUGUGUGCACAUGUGCAUGCGCAUACACACACACACACACACACACACACAUACCUUAAAAAUUUUUUAAAGUACAUUUGUUGUUGCUUGUAAUGGAAUUCUCGGGUGCCAA` — result for “RBNS enrichment (R)”: 0.717.
`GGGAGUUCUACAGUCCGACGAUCGUGGUCUGCUCAUCUCUUUAGGGAACUUUGAGGUGGGCGGUGGCAUAUGGAGGGGUGUCAGGUUCUAUGUGACCCAGUAAUGAGAAGAGCUUGAAGGUGAGGCCUGAGGGUGGAAUUCUCGGGUGCCAA` — result for “RBNS enrichment (R)”: 0.869.
`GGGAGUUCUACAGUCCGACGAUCACACAAAAAAGUGUCUUACUUGAGAGUGAGUGUGUGUGUGUGCGUGUGCACGUGCACACAUGUGCACGUUUGUAUGUAUGGAAAUAAACUUAUAAAUGGGGACGUAUUGGUGGAAUUCUCGGGUGCCAA`: “RBNS enrichment (R)” 0.901.

Block 2 — target: CEP164, C-terminal peptide (human); method: DHFR complementation, deep sequencing; sample: yeast; baseline: wild type; direction: higher = weaker binding
Notes: single substitutions, model-inferred values
Starting sequence: PDZK1, PDZ domain 2 (human); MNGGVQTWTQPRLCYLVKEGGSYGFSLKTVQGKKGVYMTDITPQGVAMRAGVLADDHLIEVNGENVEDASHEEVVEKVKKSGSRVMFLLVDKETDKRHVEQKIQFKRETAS; partner HNRVKVYRF
For `K34F`, “binding free energy change” read 0.326 kcal/mol.
For `K77C`, “binding free energy change” read 0.25 kcal/mol.
`Y23V` — result for “binding free energy change”: 1.25 kcal/mol.
`I41M`: “binding free energy change” 0.868 kcal/mol.
For `T9A`, “binding free energy change” read -0.0736 kcal/mol.
`F105W`: “binding free energy change” -0.271 kcal/mol.
`K96C` — result for “binding free energy change”: -0.0221 kcal/mol.
For `K80R`, “binding free energy change” read 0.425 kcal/mol.
`V46M`: “binding free energy change” 0.563 kcal/mol.

Block 3 — method: protein binding microarray; molecule type: double-stranded DNA, one strand shown; sample: in vitro; concentration: not given; baseline: not given; direction: higher = stronger binding
Target: Histone acetyltransferase KAT6A, both winged helices, GST fusion (KAT6A, Homo sapiens, UniProt Q92794, residues 1-181)
Notes: 8-mer, flanks averaged, mean of 2 arrays, mostly near background
Target sequence (chain): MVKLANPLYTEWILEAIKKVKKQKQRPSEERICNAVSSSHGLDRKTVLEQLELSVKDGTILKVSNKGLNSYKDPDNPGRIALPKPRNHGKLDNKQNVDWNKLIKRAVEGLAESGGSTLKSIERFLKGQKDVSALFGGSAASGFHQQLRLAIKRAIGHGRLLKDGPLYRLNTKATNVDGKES
For `AACGTGTC`, the E-score was 0.0691.
The E-score of `TACTTACA` is reported as -0.0982.
For `TCCACAGA`, the E-score was -0.218.
With `GGATCCAA` the E-score was -0.0411.
With `TAGGCCAA` the E-score was -0.188.
The E-score of `CGAAGGAA` is reported as 0.0557.
For `ACTGAGGA`, the E-score was -0.0907.
`ATGCCAGA` has an E-score of -0.079.

Other studies, line by line
For `PhoQ, residues 284 288 289 292 302 303 AGCYAI`, the fold induction was 13.6 (PhoP, residues 12 14 15 18 19 LYFRQ (Escherichia coli, UniProt P23836); Sort-seq, refers to: YFP reporter; E. coli; PhoQ-PhoP variant library, together with: 10 µM Mg2+; baseline: high Mg2+ state, higher = stronger signaling).
